Experimental data pooled from the literature.
Each line is one published result; not all experiments were run side by side. ± gives the spread as reported. Converted amounts (≈) assume the structure as drawn.
Organism: Candida tropicalis

C=C1NC(=O)C2C[S+]([O-])CC3NC(=O)C(CSC(C)C(NC(=S)C(Cc4cnc[nH]4)NC(=O)c4csc(C(C)NC(C)=O)n4)C(=O)N[C@H](CC(C)C(=O)NC(=O)CC(C(=O)O)NC(=O)C(C)NC3=O)C(=O)N2)NC(=O)[C@@H]2CCCN2C(=O)[C@@H](CC(C)C)NC1=O (some centres unmarked) — MIC (EUCAST broth microdilution; clinical isolate, RPMI 1640 with MOPS; pH 7.0, 37 °C, 2% glucose): > 32 µg/mL
CC(C)C[C@H](NC(=O)[C@H](CC(C)C)NC(=O)[C@H](CCCCN)NC(=O)CNC(=O)[C@H](CC(C)C)NC(=O)CNC(=O)[C@H](CO)NC(=O)[C@H](CC(C)C)NC(=O)[C@H](CC(C)C)NC(=O)[C@H](CO)NC(=O)[C@H](CCCCN)NC(=O)[C@H](CC(C)C)NC(=O)[C@H](CCCCN)NC(=O)[C@H](CCCCN)NC(=O)[C@H](CC(C)C)NC(=O)[C@H](CC(C)C)NC(=O)[C@H](CC(C)C)NC(=O)CNC(=O)[C@H](CO)NC(=O)[C@H](Cc1c[nH]c2ccccc12)NC(=O)[C@@H](N)CCCCN)C(=O)O — MIC (broth microdilution; ATCC 13803; 44 h, 37 °C): 8 µM
O=c1n(CCNCCOS(=O)(=O)c2ccccc2)c(=O)n(S(=O)(=O)c2ccccc2)c(=O)n1S(=O)(=O)c1ccccc1 — MIC (microbial growth, broth dilution): 32 µg/mL
CCCCCCCCCCCC(=O)NCCCC[C@H](NC(=O)CCCCCCCCCCC)C(=O)N[C@@H](CCCCNC(=O)CCCCCCCCCCC)C(=O)NCC(=O)NCC(=O)NCC(=O)N[C@@H](CS)C(=O)N[C@@H](CCCNC(=N)N)C(=O)N[C@@H](CCCCN)C(=O)N1CCC[C@H]1C(=O)N[C@@H](CS)C(=O)N[C@@H](CCCNC(=N)N)C(=O)N[C@@H](CCCCN)C(=O)N1CCC[C@H]1C(N)=O — MIC (broth microdilution; CGMCC 2.197, RPMI-1640; 48 h, 30 °C): > 128 µM
C=C1NC(=O)C2CSCC3NC(=O)C(CSC(C)C(NC(=S)C(Cc4cnc[nH]4)NC(=O)c4csc(C(C)NC(C)=O)n4)C(=O)N[C@H](CC(C)C(=O)NC(=O)CC(C(=O)O)NC(=O)C(C)NC3=O)C(=O)N2)NC(=O)[C@@H]2CCCN2C(=O)[C@@H](CC(C)C)NC1=O (some centres unmarked) — MIC (EUCAST broth microdilution; clinical isolate, RPMI 1640 with MOPS; pH 7.0, 37 °C, 2% glucose): > 32 µg/mL
O=CCNCCOn1c(=O)n(OCCNCCO)c(=O)n(OCCNCCOn2c(=O)n(OCCNCCO)c(=O)n(OCCNCCO)c2=O)c1=O — MLC (broth microdilution): 64 ± 6 µg/mL (≈ 83.1 µM)
CCCCCCCC(=O)NCCCC[C@H](NC(=O)CCCCCCC)C(=O)N[C@@H](CCCCNC(=O)CCCCCCC)C(=O)NCC(=O)NCC(=O)NCC(=O)N[C@@H](CS)C(=O)N[C@@H](CCCNC(=N)N)C(=O)N[C@@H](CCCCN)C(=O)N1CCC[C@H]1C(=O)N[C@@H](CS)C(=O)N[C@@H](CCCNC(=N)N)C(=O)N[C@@H](CCCCN)C(=O)N1CCC[C@H]1C(=O)N[C@@H](CS)C(=O)N[C@@H](CCCNC(=N)N)C(=O)N[C@@H](CCCCN)C(=O)N1CCC[C@H]1C(=O)N[C@@H](CS)C(=O)N[C@@H](CCCNC(=N)N)C(=O)N[C@@H](CCCCN)C(=O)N1CCC[C@H]1C(N)=O — MIC (broth microdilution; CGMCC 2.197, RPMI-1640; 48 h, 30 °C): 8 µM
CC(C)C[C@H](NC(=O)[C@H](CC(C)C)NC(=O)[C@H](CCCCN)NC(=O)CNC(=O)[C@H](CC(C)C)NC(=O)CNC(=O)[C@H](CO)NC(=O)[C@H](CC(C)C)NC(=O)[C@H](CC(C)C)NC(=O)[C@H](CO)NC(=O)[C@H](CCCCN)NC(=O)[C@H](CC(C)C)NC(=O)[C@H](CCCCN)NC(=O)[C@H](CCCCN)NC(=O)[C@H](C)NC(=O)[C@H](C)NC(=O)[C@H](C)NC(=O)CNC(=O)[C@H](CO)NC(=O)[C@H](Cc1c[nH]c2ccccc12)NC(=O)[C@@H](N)CCCCN)C(=O)O — MIC (broth microdilution; ATCC 13803; 44 h, 37 °C): 1 µM

Some of these lines once more:
O=CCNCCOn1c(=O)n(OCCNCCO)c(=O)n(OCCNCCOn2c(=O)n(OCCNCCO)c(=O)n(OCCNCCO)c2=O)c1=O — MLC (broth microdilution): 64 ± 6 µg/mL (≈ 83.1 µM)
